{"data": "Results of several laboratories", "note": "Every numbered part comes from another study and shows a few of its results, in no order.", "UniProt P21728, sequence (whole entry, looked up)": "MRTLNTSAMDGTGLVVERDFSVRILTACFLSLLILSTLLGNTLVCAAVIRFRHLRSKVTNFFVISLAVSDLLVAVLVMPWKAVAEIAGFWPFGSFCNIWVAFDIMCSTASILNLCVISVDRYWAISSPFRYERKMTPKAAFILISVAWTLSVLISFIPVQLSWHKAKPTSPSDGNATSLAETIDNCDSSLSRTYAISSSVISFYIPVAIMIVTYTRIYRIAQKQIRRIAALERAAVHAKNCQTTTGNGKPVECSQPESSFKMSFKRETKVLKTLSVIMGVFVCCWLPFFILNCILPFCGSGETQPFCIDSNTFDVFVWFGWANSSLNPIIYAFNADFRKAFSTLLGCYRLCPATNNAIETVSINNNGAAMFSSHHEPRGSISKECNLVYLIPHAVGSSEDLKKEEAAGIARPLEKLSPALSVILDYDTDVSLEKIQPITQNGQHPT", "UniProt P18089, sequence (whole entry, looked up)": "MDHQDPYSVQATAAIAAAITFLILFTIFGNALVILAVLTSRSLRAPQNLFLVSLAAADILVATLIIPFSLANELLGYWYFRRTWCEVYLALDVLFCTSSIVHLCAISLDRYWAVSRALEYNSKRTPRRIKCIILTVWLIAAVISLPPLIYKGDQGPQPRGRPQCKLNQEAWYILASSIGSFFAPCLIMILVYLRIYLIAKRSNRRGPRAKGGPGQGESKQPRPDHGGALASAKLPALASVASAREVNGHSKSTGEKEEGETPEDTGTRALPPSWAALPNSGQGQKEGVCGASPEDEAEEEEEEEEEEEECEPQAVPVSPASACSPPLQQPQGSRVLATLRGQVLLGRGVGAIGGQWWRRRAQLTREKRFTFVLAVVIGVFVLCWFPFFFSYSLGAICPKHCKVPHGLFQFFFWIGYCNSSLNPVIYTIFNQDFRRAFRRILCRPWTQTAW", "UniProt Q9H3N8, sequence (whole entry, looked up)": "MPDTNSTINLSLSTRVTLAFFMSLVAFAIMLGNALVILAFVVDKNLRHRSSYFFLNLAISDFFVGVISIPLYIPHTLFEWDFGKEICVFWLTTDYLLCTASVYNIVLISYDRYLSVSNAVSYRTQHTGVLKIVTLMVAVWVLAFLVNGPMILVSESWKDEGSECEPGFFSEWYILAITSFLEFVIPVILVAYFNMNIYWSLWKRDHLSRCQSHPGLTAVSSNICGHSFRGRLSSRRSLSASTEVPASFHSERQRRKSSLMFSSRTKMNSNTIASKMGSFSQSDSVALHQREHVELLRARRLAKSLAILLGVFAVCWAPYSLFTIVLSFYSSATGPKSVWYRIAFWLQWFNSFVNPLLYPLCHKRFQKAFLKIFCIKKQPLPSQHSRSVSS", "UniProt P13945, sequence (whole entry, looked up)": "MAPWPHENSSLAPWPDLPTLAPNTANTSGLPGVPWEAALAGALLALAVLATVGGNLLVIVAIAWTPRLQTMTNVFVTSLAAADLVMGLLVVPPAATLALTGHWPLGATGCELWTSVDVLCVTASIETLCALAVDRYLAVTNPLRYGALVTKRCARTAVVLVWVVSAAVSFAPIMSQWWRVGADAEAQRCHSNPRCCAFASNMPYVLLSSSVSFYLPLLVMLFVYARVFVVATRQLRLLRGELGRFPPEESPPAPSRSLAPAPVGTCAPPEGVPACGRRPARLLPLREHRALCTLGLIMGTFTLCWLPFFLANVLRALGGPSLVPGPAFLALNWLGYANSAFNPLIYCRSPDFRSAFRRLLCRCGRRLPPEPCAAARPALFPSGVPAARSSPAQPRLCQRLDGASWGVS", "UniProt P08172, sequence (whole entry, looked up)": "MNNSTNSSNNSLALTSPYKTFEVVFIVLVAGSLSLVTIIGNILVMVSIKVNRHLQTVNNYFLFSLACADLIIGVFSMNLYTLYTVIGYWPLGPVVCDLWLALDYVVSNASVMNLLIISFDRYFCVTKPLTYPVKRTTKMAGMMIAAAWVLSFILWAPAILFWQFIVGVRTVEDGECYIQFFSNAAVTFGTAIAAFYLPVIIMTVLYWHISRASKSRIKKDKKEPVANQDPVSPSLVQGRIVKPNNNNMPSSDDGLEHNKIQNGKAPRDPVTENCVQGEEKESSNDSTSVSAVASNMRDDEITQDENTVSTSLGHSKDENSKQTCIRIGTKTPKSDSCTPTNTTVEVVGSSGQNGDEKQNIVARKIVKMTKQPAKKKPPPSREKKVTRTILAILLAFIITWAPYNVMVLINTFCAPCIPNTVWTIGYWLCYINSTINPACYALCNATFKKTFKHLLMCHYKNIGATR", "UniProt P35368, sequence (whole entry, looked up)": "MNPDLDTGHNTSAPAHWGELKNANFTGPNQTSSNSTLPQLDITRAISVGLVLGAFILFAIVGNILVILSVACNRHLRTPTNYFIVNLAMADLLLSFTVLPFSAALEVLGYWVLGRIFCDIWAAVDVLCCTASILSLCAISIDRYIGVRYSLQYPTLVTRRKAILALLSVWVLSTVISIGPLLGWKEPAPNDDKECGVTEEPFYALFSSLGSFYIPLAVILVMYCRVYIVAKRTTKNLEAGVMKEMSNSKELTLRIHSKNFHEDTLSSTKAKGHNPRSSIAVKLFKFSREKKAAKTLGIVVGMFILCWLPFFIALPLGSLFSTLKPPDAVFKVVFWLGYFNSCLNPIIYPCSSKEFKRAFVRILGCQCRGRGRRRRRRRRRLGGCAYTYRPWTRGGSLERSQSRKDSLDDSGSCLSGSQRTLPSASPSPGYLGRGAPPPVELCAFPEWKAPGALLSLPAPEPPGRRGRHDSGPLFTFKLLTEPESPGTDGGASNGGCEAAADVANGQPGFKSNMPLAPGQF", "UniProt P34969, sequence (whole entry, looked up)": "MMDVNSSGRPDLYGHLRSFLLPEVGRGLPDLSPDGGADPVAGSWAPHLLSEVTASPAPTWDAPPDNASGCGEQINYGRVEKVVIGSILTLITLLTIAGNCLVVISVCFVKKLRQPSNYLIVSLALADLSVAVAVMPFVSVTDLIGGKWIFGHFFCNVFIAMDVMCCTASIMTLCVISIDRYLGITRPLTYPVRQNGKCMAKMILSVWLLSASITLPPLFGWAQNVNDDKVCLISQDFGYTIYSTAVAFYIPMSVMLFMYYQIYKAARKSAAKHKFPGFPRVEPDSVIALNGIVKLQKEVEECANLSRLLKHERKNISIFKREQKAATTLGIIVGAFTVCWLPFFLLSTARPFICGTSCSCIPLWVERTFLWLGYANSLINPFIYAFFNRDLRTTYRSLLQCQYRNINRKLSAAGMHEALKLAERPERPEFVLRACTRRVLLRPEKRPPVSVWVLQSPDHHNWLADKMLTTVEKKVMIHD", "UniProt P47898, sequence (whole entry, looked up)": "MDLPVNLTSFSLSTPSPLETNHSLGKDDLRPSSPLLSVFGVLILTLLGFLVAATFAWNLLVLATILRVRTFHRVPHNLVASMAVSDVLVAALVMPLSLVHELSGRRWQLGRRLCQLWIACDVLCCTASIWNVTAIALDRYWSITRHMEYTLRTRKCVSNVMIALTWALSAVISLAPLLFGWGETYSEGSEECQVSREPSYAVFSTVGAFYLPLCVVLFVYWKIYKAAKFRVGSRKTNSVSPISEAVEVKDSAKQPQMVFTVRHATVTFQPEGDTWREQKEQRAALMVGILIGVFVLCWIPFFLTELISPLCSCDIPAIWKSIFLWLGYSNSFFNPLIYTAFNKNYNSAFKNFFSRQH", "UniProt P18825, sequence (whole entry, looked up)": "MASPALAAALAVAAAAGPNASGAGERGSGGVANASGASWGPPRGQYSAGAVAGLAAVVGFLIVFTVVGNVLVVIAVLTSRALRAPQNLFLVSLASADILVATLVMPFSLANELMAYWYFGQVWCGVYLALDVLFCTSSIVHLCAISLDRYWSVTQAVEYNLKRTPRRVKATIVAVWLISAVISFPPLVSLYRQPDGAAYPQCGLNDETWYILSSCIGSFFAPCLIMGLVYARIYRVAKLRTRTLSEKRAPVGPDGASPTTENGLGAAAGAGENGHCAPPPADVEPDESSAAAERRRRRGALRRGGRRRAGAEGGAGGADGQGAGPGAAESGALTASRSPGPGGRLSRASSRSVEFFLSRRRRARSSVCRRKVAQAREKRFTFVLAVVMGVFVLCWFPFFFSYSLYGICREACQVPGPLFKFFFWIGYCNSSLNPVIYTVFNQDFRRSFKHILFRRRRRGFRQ"}
{"data": "Set 1", "Structure (SMILES)": "C=CCc1ccc(O)c(-c2cc(CC=C)ccc2O)c1", "target": "Anoctamin-1 (ANO1, Homo sapiens, UniProt Q5XXA6, del476-501)", "effect on": "chloride current", "technique": "whole-cell patch clamp", "UniProt Q5XXA6, sequence (whole entry, unmodified, looked up)": "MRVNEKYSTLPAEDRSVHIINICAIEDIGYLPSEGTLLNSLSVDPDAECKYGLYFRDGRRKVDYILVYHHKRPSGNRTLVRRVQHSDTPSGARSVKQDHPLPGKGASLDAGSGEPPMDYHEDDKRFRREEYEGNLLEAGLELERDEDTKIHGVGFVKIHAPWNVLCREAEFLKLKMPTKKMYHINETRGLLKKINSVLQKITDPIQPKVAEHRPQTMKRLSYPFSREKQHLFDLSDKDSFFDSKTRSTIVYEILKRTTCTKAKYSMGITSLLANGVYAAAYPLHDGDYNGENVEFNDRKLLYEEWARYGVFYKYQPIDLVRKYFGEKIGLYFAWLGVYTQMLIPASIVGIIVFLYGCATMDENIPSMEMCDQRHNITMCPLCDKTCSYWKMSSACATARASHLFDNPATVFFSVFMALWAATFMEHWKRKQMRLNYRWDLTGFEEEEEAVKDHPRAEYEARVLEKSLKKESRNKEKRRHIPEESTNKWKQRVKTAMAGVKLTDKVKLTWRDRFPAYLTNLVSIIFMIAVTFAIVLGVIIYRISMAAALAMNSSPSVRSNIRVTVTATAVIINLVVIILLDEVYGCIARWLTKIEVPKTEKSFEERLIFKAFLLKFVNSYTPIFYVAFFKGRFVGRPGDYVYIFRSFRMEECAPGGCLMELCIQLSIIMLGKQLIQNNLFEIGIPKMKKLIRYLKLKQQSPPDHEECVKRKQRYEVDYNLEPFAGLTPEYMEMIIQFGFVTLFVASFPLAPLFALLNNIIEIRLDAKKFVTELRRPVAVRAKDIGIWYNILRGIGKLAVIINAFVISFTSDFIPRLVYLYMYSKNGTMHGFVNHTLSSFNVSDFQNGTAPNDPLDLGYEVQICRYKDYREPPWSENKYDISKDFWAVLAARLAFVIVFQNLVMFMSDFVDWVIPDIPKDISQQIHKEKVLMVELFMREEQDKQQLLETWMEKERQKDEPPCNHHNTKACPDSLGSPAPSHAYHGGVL"}
{"concentration": "1 µM", "setting": "40 mV, 300 nM free Ca2+", "normalised current": 0.194}
{"concentration": "1 µM", "setting": "60 mV, 300 nM free Ca2+", "normalised current": 0.367}
{"concentration": "10 µM", "setting": "-100 mV, 300 nM free Ca2+", "normalised current": -0.0751}
{"concentration": "10 µM", "setting": "100 mV, 300 nM free Ca2+", "normalised current": 0.659}
{"concentration": "30 µM", "setting": "-80 mV, 300 nM free Ca2+", "normalised current": -0.0439}
{"concentration": "3 µM", "setting": "-80 mV, 300 nM free Ca2+", "normalised current": -0.0939}
{"data": "Set 2", "host": "human", "sample": "microsomes or S9", "concentration": "2 µM", "time": "0.5 h"}
{"SMILES": "CCCC(O)(CCC)CC(=O)Nc1cc(-c2n[nH]c(=O)[nH]2)ccc1C", "remaining compound": "96.3%"}
{"SMILES": "CC(C)n1c(C(O)c2nc3ccccc3n2C)nc2ccccc21 (centres unmarked)", "remaining compound": "63.9%"}
{"SMILES": "COc1cc(=O)n(-c2ccccc2)cc1C(=O)N1CC(S(=O)(=O)c2nccn2C)C1", "remaining compound": "> 99%"}
{"SMILES": "CN(Cc1cc(Br)cn1C)c1ncccn1", "remaining compound": "> 100%"}
{"SMILES": "CC(C)n1c(N2CCCN(C(=O)c3cc4cc(Cl)ccc4[nH]3)CC2)cc(=O)n(C(C)C)c1=O", "remaining compound": "19%"}
{"SMILES": "COC(=O)CCNC(=O)CCc1nnc(O)[nH]c1=O", "remaining compound": "93.3%"}
{"data": "Set 3", "SMILES": "CNCc1ccccc1-c1csc([C@H](C)Nc2nc(C)nc3cc(OC)c(OC)cc23)c1", "effect on": "binding", "technique": "radioligand binding", "concentration": "10 µM"}
{"target": "Beta-3 adrenergic receptor (ADRB3, Homo sapiens, UniProt P13945)", "inhibition [%]": 38.2}
{"target": "Muscarinic acetylcholine receptor M2 (CHRM2, Homo sapiens, UniProt P08172)", "inhibition [%]": 65.4}
{"target": "Muscarinic acetylcholine receptor M4 (CHRM4, Homo sapiens, UniProt P08173)", "inhibition [%]": 59.4}
{"target": "D(1A) dopamine receptor (DRD1, Homo sapiens, UniProt P21728)", "inhibition [%]": 89.2}
{"target": "Alpha-2C adrenergic receptor (ADRA2C, Homo sapiens, UniProt P18825)", "inhibition [%]": 94.2}
{"target": "Histamine H1 receptor (HRH1, Homo sapiens, UniProt P35367)", "inhibition [%]": 56.7}
{"target": "Alpha-2B adrenergic receptor (ADRA2B, Homo sapiens, UniProt P18089)", "inhibition [%]": 82.9}
{"target": "5-hydroxytryptamine receptor 5A (HTR5A, Homo sapiens, UniProt P47898)", "inhibition [%]": 78.1}
{"target": "5-hydroxytryptamine receptor 7 (HTR7, Homo sapiens, UniProt P34969)", "inhibition [%]": 70.7}
{"target": "Alpha-1D adrenergic receptor (ADRA1D, Homo sapiens, UniProt P25100)", "inhibition [%]": 81.2}
{"target": "Histamine H4 receptor (HRH4, Homo sapiens, UniProt Q9H3N8)", "inhibition [%]": 67}
{"target": "Alpha-1B adrenergic receptor (ADRA1B, Homo sapiens, UniProt P35368)", "inhibition [%]": 94.7}
{"target": "5-hydroxytryptamine receptor 3A (HTR3A, Homo sapiens, UniProt P46098)", "inhibition [%]": 16}
{"target": "Histamine H2 receptor (HRH2, Homo sapiens, UniProt P25021)", "inhibition [%]": 101}
{"data": "Set 4", "Compound": "CC(C)n1cnc(-c2ccc(F)cc2)c1-c1ncc(C(=O)Nc2ccc(N3CCN(C)CC3)cc2)[nH]1", "technique": "phase 2a trial", "host": "idiopathic pulmonary fibrosis patients"}
{"item": "ventricular extrasystoles", "dose": "60 mg once daily", "setting": "grade 3", "adverse event incidence": "0%"}
{"item": "general and administration site disorders", "dose": "dose not given", "setting": "grade 5, all arms pooled", "adverse event incidence": "0%"}
{"item": "chronic gastritis", "dose": "60 mg once daily", "setting": "grade 5", "adverse event incidence": "0%"}
{"item": "allergic conjunctivitis", "dose": "30 mg once daily", "setting": "grade 2", "adverse event incidence": "0%"}
{"item": "hydroxybutyrate dehydrogenase increased", "dose": "30 mg once daily", "setting": "grade 2", "adverse event incidence": "0%"}
{"item": "chronic gastritis", "dose": "dose not given", "setting": "grade 4, all arms pooled", "adverse event incidence": "0%"}
{"item": "drug eruption", "dose": "30 mg once daily", "setting": "grade 5", "adverse event incidence": "0%"}
{"item": "appendicitis", "dose": "60 mg once daily", "setting": "grade 5", "adverse event incidence": "0%"}
{"item": "drug eruption", "dose": "30 mg once daily", "setting": "grade 1", "adverse event incidence": "0%"}
{"note": "Repeated from above (set 4):"}
{"item": "general and administration site disorders", "dose": "dose not given", "setting": "grade 5, all arms pooled", "adverse event incidence": "0%"}
{"item": "chronic gastritis", "dose": "60 mg once daily", "setting": "grade 5", "adverse event incidence": "0%"}
{"item": "allergic conjunctivitis", "dose": "30 mg once daily", "setting": "grade 2", "adverse event incidence": "0%"}
{"item": "hydroxybutyrate dehydrogenase increased", "dose": "30 mg once daily", "setting": "grade 2", "adverse event incidence": "0%"}
{"item": "chronic gastritis", "dose": "dose not given", "setting": "grade 4, all arms pooled", "adverse event incidence": "0%"}
